# Assay results collected from several papers.
# Protocols differ between the studies behind these lines. Values joined by “and” are separate records of one study, mostly repeats; a detail may differ. Numbers after ± are the reported error.
# Kir3.1/Kir3.4: Kir3.1/Kir3.4 (Homo sapiens, UniProt P48544+P48549)
# UniProt P48549, sequence (whole entry, looked up): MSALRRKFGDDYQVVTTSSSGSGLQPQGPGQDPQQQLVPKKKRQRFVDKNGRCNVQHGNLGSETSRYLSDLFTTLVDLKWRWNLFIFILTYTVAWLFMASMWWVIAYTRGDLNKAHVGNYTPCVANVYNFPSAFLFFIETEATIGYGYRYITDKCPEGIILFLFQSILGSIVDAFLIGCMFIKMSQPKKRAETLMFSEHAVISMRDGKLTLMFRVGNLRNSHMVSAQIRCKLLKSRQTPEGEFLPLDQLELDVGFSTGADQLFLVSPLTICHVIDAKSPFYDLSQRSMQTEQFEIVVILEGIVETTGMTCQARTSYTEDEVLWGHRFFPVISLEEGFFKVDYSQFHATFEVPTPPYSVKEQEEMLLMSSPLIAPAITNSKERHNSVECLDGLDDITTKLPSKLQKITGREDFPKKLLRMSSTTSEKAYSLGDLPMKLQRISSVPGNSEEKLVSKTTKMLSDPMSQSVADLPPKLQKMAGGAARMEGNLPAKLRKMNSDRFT
# UniProt P48544, sequence (whole entry, looked up): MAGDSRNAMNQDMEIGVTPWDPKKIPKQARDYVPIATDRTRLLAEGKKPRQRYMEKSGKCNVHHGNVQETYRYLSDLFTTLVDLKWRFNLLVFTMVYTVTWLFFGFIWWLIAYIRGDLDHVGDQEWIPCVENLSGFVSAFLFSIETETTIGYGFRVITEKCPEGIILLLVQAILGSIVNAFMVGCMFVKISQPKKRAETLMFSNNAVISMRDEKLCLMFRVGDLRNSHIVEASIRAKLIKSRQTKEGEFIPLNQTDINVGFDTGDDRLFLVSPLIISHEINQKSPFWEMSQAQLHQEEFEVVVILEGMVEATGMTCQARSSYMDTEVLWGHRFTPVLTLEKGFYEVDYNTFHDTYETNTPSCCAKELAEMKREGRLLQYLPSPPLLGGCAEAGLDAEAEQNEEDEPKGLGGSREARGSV
# pyrD: Dihydroorotate dehydrogenase (quinone) (pyrD, Acinetobacter baumannii, UniProt B7GZW7)
# UniProt B7GZW7, sequence (whole entry, looked up): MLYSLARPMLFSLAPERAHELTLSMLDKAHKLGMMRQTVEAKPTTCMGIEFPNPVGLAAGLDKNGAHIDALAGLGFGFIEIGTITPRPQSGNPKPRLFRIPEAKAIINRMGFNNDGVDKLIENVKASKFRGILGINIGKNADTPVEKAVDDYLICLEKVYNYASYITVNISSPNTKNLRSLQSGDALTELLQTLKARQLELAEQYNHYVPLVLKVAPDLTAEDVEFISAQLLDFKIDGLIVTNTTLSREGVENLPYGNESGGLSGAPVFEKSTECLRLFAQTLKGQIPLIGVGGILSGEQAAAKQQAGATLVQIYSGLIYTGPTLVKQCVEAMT
# CDC28: Cyclin-dependent kinase 1 (CDC28, Candida albicans, UniProt P43063)
# UniProt P43063, sequence (whole entry, looked up): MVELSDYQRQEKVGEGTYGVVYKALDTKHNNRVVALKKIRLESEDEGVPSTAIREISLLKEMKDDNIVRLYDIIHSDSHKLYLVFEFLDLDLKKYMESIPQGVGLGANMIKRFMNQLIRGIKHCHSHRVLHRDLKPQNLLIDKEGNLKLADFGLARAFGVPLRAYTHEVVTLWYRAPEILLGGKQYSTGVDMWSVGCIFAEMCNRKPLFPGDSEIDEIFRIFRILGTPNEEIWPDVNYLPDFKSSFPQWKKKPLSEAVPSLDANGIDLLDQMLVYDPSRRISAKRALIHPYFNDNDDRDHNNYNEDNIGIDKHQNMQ
# T1: riboswitch RNA SAM-I metF-H2 (Thermoanaerobacter tengcongensis); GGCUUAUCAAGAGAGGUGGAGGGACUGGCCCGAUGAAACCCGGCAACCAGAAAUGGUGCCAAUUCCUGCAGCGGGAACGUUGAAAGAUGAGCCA
# T2: riboswitch RNA yjdF aptamer A11G/A50G (Bacillus subtilis); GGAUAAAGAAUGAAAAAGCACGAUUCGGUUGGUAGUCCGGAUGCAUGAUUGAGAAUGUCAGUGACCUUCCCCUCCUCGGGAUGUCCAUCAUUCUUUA
# T3: riboswitch RNA C63G (Bacillus); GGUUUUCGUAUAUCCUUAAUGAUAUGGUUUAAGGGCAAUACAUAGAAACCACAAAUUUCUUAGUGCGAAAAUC
# UniProt P51575, sequence (whole entry, unmodified, looked up): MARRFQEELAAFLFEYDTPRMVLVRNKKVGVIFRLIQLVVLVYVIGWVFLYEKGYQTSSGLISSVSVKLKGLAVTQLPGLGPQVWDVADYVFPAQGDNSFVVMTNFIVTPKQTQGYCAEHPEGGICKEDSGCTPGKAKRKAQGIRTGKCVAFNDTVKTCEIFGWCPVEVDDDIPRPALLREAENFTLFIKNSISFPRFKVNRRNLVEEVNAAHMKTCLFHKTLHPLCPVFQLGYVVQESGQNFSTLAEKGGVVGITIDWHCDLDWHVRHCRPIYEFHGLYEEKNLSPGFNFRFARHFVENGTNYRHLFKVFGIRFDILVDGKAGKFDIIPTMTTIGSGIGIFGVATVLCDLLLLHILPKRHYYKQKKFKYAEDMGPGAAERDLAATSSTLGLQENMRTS
# UniProt Q64663, sequence (whole entry, unmodified, looked up): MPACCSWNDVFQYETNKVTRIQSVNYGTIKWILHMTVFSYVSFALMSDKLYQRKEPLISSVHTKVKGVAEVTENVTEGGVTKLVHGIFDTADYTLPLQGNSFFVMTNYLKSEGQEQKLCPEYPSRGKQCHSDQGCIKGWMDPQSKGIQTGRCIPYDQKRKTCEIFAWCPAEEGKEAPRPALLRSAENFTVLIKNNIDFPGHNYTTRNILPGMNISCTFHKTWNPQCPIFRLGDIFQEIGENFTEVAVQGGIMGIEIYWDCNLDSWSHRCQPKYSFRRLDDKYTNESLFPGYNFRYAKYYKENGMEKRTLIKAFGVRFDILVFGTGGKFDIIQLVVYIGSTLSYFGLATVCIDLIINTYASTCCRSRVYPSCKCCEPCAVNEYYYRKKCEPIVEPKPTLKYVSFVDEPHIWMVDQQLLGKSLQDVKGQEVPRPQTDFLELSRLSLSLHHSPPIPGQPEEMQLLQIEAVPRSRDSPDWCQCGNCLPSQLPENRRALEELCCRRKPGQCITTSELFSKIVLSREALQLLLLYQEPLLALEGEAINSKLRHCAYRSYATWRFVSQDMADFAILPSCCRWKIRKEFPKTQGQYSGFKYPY
# UniProt P58418, sequence (whole entry, unmodified, looked up): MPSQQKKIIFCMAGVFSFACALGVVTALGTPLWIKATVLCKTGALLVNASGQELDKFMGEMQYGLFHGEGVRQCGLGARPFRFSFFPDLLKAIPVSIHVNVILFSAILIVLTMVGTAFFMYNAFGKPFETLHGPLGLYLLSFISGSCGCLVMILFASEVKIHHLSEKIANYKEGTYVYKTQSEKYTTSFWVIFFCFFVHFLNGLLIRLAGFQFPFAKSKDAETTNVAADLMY
# UniProt P11388, sequence (whole entry, looked up): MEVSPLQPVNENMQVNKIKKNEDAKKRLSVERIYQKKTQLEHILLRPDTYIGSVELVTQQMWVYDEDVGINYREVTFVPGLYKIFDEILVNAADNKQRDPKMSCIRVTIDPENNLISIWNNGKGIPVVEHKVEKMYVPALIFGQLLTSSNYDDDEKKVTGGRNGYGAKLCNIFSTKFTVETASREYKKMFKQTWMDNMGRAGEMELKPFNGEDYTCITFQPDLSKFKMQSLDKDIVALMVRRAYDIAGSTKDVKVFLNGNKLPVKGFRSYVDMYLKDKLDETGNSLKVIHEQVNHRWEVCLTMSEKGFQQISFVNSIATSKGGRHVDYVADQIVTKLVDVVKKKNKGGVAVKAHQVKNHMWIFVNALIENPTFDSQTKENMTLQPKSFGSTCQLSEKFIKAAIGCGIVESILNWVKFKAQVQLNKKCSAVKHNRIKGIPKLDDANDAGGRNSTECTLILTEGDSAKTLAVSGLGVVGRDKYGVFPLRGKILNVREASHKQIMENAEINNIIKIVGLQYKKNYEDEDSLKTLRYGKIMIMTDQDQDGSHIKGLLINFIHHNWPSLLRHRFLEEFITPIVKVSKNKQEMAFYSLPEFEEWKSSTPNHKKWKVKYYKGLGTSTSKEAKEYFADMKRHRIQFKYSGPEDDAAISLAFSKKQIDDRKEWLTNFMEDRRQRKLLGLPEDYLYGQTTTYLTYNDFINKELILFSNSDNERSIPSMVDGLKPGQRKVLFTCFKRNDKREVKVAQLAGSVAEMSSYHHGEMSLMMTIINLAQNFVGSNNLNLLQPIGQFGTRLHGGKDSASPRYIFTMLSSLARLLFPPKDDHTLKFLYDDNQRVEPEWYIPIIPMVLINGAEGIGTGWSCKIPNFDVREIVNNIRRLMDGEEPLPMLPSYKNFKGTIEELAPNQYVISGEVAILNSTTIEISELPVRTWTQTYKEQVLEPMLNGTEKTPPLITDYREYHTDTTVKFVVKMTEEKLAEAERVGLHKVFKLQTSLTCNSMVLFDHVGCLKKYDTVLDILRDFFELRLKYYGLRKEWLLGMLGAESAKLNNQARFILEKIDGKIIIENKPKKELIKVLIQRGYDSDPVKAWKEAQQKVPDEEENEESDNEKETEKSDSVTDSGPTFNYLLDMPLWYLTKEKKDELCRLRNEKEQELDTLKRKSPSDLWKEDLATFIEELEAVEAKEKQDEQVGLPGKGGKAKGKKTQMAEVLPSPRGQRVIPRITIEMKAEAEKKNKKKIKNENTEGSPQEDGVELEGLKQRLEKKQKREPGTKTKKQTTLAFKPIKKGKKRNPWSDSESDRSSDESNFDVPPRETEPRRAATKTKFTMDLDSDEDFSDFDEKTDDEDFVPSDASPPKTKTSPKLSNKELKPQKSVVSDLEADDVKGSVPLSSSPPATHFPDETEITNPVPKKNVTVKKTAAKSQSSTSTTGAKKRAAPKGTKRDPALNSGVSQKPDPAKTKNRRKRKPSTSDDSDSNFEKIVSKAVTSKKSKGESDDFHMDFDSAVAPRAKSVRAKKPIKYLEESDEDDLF
# UniProt Q99755, sequence (whole entry, looked up): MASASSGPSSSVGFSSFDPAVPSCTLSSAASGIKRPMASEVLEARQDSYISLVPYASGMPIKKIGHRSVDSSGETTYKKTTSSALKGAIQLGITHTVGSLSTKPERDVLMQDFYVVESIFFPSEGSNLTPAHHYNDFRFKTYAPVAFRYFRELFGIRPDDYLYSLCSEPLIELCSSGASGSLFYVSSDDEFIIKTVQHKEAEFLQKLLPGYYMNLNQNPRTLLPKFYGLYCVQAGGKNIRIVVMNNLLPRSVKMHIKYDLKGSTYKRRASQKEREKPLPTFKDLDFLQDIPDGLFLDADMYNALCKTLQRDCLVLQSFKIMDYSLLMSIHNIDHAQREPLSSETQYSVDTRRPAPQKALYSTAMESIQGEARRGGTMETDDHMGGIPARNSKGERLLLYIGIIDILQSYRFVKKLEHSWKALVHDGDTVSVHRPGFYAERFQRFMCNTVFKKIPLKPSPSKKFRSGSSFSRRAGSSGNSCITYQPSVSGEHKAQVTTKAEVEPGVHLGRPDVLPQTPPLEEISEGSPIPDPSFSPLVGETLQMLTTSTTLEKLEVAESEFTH
SMILES,target,test,system,conditions,scale,endpoint,value
CC(=O)NCC(=O)NCC(=O)N[C@H](C(=O)N[C@@H](Cc1ccc(O)cc1)C(=O)N[C@@H](CO)C(=O)N[C@H]1CSSC[C@@H](C(=O)N[C@@H](CCCNC(=N)N)C(=O)N2CCC[C@H]2C(=O)N[C@@H](CCC(N)=O)C(=O)N[C@@H](CCCNC(=N)N)C(=O)NCC(=O)NCCC(=O)N[C@@H](CCCCNC(=O)CN(CC(=O)NCCCC[C@H](NC(=O)CCNC(=O)CNC(=O)[C@H](CCCNC(=N)N)NC(=O)[C@H](CCC(N)=O)NC(=O)[C@@H]2CCCN2C(=O)[C@H](CCCNC(=N)N)NC(=O)[C@@H]2CSSC[C@H](NC(=O)[C@H](CO)NC(=O)[C@H](Cc3ccc(O)cc3)NC(=O)[C@@H](NC(=O)CNC(=O)CNC(C)=O)[C@@H](C)O)C(=O)N[C@@H](Cc3c[nH]cn3)C(=O)N[C@@H](Cc3ccccc3)C(=O)NCC(=O)N[C@@H](C)C(=O)N[C@@H](CC(C)C)C(=O)N[C@@H]([C@@H](C)O)C(=O)N[C@@H](Cc3c[nH]c4ccccc34)C(=O)N[C@@H](C(C)C)C(=O)N2)C(N)=O)C(=O)CCN)C(N)=O)NC(=O)[C@H](C(C)C)NC(=O)[C@H](Cc2c[nH]c3ccccc23)NC(=O)[C@H]([C@@H](C)O)NC(=O)[C@H](CC(C)C)NC(=O)[C@H](C)NC(=O)CNC(=O)[C@H](Cc2ccccc2)NC(=O)[C@H](Cc2c[nH]cn2)NC1=O)[C@@H](C)O,"Erythropoietin receptor, extracellular domain (Homo sapiens, UniProt P19235)","binding, SPR",,1:1 binding model,,kon,6.77e+06 M⁻¹ s⁻¹
[H]/N=C(/N)NCC(=O)O,"Sodium- and chloride-dependent taurine transporter (SLC6A6, Homo sapiens, UniProt P31641, G62A)","binding, microscale thermophoresis",,"1.95 µM, room temperature, added: 50 nM labelled protein",higher = more binding,normalised MST signal,-0.0905
N#Cc1ccsc1NC(=O)COc1cc(Cl)ccc1Cl,Kir3.1/Kir3.4,"activator, thallium flux",HEK293,concentration not given,,activity,inactive
Cc1cc(Nc2ccc(C(F)(F)F)cc2)n2nc(C(C)(F)F)nc2n1,pyrD,"enzyme activity, inhibitor, colorimetric HTS, item: DCIP reduction",,3 µM,direction not given,robust Z-score,18.5
CCCCC/C=C\C/C=C\C/C=C\C/C=C\CCCC(=O)O,"Cytochrome P450 2J2 (CYP2J2, Homo sapiens, UniProt P51589, L2A/S493A/T318V)",substrate,,50 µM,,metabolism rate,46.3 ± 1.5 pmol/min/nmol CYP2J2
[O-][S+]1CCCCS1 (stereo not shown),"Superoxide dismutase [Cu-Zn] (SOD1, Homo sapiens, UniProt P00441, G94A)",LC-MS,human whole blood,"5 µM, 1 h, 37 °C",,SOD1 dimer fraction,0.55%
COc1cc(Nc2ncc3c(n2)-c2ccc(Cl)cc2C(c2c(F)cccc2OC)=NC3)ccc1C(=O)O,EPHB4,kinase activity,,1 µM,,remaining activity,29%
CCc1c(C#N)c(SC(C(N)=O)c2ccccc2)nc(N(C)CC(=O)NC)c1C#N (stereo not shown),"DNA (cytosine-5)-methyltransferase 1 (DNMT1, Homo sapiens, UniProt P26358)","degrader, western blot",HCT-116,"500 nM, 2 h",,degradation,~50%
Nc1ncnc2c1ncn2C(C=O)OC(C=O)CO (stereo not shown),SND1,co-immunoprecipitation,HEK293T expressing GFP-RMET,"25 µM, 3 days",,SART3 binding,decreased
CC1=NN(c2cccc(C)c2)C(=O)C1=NNc1ccc(S(N)(=O)=O)cc1,bovine α-glucosidase,"enzyme activity, inhibitor, glucose oxidase",,"50 µg/mL, added: maltose",,inhibition,31%
Nc1ncnc2c1ncn2[C@@H]1O[C@H](COP(=O)(O)OP(=O)(O)OP(=O)(O)O)[C@@H](O)[C@H]1O,"P2X purinoceptor 7 (P2rx7, Rattus norvegicus, UniProt Q64663, I214A)","ion current, agonist, two-electrode voltage clamp",Xenopus laevis oocytes,11.1 µM,relative to: highest concentration response,normalized current,0.0155 and 0.0117 and 0.0215
C=C1CN(S(=O)(=O)c2ccc(C)cc2)CCCN(Cc2ccccc2)CCCN(S(=O)(=O)c2ccc(C)cc2)C1,"Protein transport protein Sec61 subunit alpha isoform 1 (Homo sapiens, UniProt P61619)","Sec61-dependent translocation, inhibitor, item: CD4 signal peptide-FLuc reporter",HEK293,"0.37 mM, 6 h",,FLuc/RLuc ratio,1.39
C[n+]1cn([C@@H]2O[C@H](COP(=O)(O)CP(=O)(O)OP(=O)(O)OC[C@H]3O[C@@H](n4cnc5c(=O)[nH]c(N)nc54)[C@H](O)[C@@H]3O)[C@@H](O)[C@H]2O)c2nc(N)[nH]c(=O)c21,"m7GpppX diphosphatase (DCPS, Homo sapiens, UniProt Q96C86)","binding, stopped-flow fluorescence",10% glycerol,20 °C,,association rate constant,6.6e+07 ± 3.5e+06 M⁻¹ s⁻¹
Cc1n[nH]c2ccc(-c3cc(OC[C@@H](N)Cc4ccccc4)cnc3-c3ccoc3)cc12,CDC28,"kinase binding, competitor, MIB/MS competition, item: CDC28",Candida albicans cell lysate,10 µM,relative to: DMSO,log2 fold change,-0.931
O=C(Nc1ccc(F)c(Br)c1)c1ccc2c(c1)C(=O)NC2=O,"Amine oxidase [flavin-containing] B (MAOB, Homo sapiens, UniProt P27338)","enzyme activity, reversible inhibitor",,"concentration not given, 15 min pre-incubation",,activity recovery time,72 min
CC(C)OCCn1c(=S)[nH]c(=O)c2[nH]ccc21,"Myeloperoxidase (MPO, Homo sapiens, UniProt P05164)","H2O2 consumption, inhibitor, H2O2 electrode",,"0.45 µM, 0 s",,H2O2 concentration,-36.3 µM
COc1cc(F)ccc1-c1ncnc(Nc2cccc(C[S@](C)(=N)=O)c2)n1,"Phosphatidylinositol 4-phosphate 5-kinase type-1 alpha (PIP5K1A, Homo sapiens, UniProt Q99755)",kinase activity,,"10 µM, added: 10 µM ATP",,remaining activity,96%
O=C(CN1C(=O)S/C(=C\c2ccc(Br)cc2)C1=O)c1ccc([N+](=O)[O-])cc1,"Aldo-keto reductase family 1 member B1 (AKR1B1, Homo sapiens, UniProt P15121)","enzyme activity, inhibitor",,,,log IC50,2.69 log nM
CSc1nc2nc(C)cc(Nc3ccc(C(F)(F)F)cc3)n2n1,pyrD,"enzyme activity, inhibitor, colorimetric HTS, item: DCIP reduction",,3 µM,direction not given,robust Z-score,26.2
NS(=O)(=O)NCCNc1nonc1C(=NO)Nc1ccc(F)c(Br)c1,"Indoleamine 2,3-dioxygenase 1 (IDO1, Homo sapiens, UniProt P14902)","thermal stability, nanoDSF",,"50 µM, 1% DMSO, no DTT, added: SHG1-labelled protein",,ΔTi,4 °C
CC[C@H](C)[C@H](NC(=O)[C@H](CCC(=O)O)NC(=O)[C@H](C)NC(=O)[C@@H](NC(=O)[C@H](Cc1c[nH]cn1)NC(=O)[C@H]1CCC[C@@H]1NC(=O)[C@H](CCC(=O)O)NC(=O)[C@H](C)NC(=O)[C@H]1CCC[C@@H]1NC(=O)[C@H](CC(C)C)NC(=O)[C@H](Cc1c[nH]cn1)NC(=O)[C@H](Cc1c[nH]cn1)NC(=O)[C@H]1CCC[C@@H]1NC(=O)[C@H](Cc1ccccc1)NC(=O)[C@H](Cc1ccccc1)NC(=O)[C@H](CCCNC(=N)N)NC(=O)[C@H](CCCNC(=N)N)NC(=O)[C@H](CCCNC(=N)N)NC(=O)[C@H]1CCC[C@@H]1NC(=O)[C@H](CC(=O)O)NC(=O)[C@H](CCC(N)=O)NC(=O)[C@@H](NC(=O)C[C@H](Cc1c[nH]c2ccccc12)NC(=O)[C@H](CCCCN)NC(=O)[C@@H](Cc1c[nH]c2ccccc12)NC(=O)[C@H](CC(C)C)NC(=O)[C@H](CC(=O)O)NC(=O)[C@H](Cc1c[nH]cn1)NC(=O)[C@H](CC(C)C)NC(=O)C[C@@H](N)CC(C)C)[C@@H](C)CC)[C@@H](C)O)C(N)=O,"Parathyroid hormone/parathyroid hormone-related peptide receptor (PTH1R, Homo sapiens, UniProt Q03431, T410R)","inverse agonist, GloSensor cAMP",HEK293 expressing PTH1R,,,basal cAMP formation,decreased
COc1cc(F)cc2c(N3CCN4c5ccccc5NCC4C3)c(C#N)nnc12 (stereo not shown),"Metabotropic glutamate receptor 7 (Grm7, Rattus norvegicus, UniProt P35400)",positive allosteric modulator,cell-based,added: L-AP4 EC20,relative to: L-AP4 maximum,maximal response,55%
Cc1cc(NC(=O)C2CCc3ccccc3O2)n(C2CCS(=O)(=O)C2)n1 (stereo not shown),Kir3.1/Kir3.4,"thallium flux, activator",HEK293,,relative to: standard compound,Emax,21%
CC1=NN(c2cccc([N+](=O)[O-])c2)C(=O)C1=NNc1ccc(S(N)(=O)=O)cc1,bovine α-glucosidase,"enzyme activity, inhibitor, glucose oxidase",,"10 µg/mL, added: maltose",,inhibition,34.884 ± 0.0019%
C=CCNC1=C2C[C@@H](C)C[C@H](OC)[C@H](O)[C@@H](C)/C=C(\C)[C@H](OC(N)=O)[C@@H](OC)/C=C\C=C(/C)C(=O)NC(=CC1=O)C2=O,"Clarin-1 (CLRN1, Homo sapiens, UniProt P58418, N48K)",item: CLRN1 N48K,D6,20 µM,,protein level,no effect
Oc1ccccc1-c1n[nH]cc1-c1ccnc2ccccc12,CDC28,"kinase binding, MIB/MS competition",Candida albicans lysate,1 µM,"relative to: DMSO, negative = stronger binding",log2 fold change,-0.07
Cc1cccc(N2CC(C(=O)O)CC2=O)c1 (stereo not shown),"Protein transport protein Sec31A (SEC31A, Homo sapiens, UniProt O94979)","binding, affinity selection mass spectrometry",,,relative to: other proteins in batch,fold enrichment,0.95
CCOCc1nc(O)c(-c2nnc(Cc3ccc(Cl)cn3)o2)c(O)c1-c1c(OC)cccc1OC,"Apelin receptor (APLNR, Homo sapiens, UniProt P35414)","GαoA activation, agonist, BRET biosensor",HEK293,,,Emax,102 ± 3%
CCNC(=O)/C=C/c1cccc(Br)c1,"Sodium-dependent neutral amino acid transporter B(0)AT1 (SLC6A19, Homo sapiens, UniProt Q695T7)","inhibitor, FLIPR membrane potential",CHO-BC cells,"0.003 µM, unit not given",relative to: no inhibitor,remaining transport activity,0.975
Cc1cc(Nc2ccc(C(C)(C)C)cc2)n2nc(C(C)(F)F)nc2n1,pyrD,"enzyme activity, inhibitor, colorimetric HTS, item: DCIP reduction",,3 µM,direction not given,robust Z-score,19.2
CCCCC[C@H](O)/C=C/[C@H]1C(=O)C[C@H](O)[C@@H]1C/C=C\CCCC(=O)O,"Prostaglandin D2 receptor (PTGDR, Homo sapiens, UniProt Q13258, D319N)",agonist,,,,Emax,124 ± 10%
O=c1nc(SCc2cc(F)cc(C(F)(F)F)c2)nc(SCc2ccc3nc(Cl)ccc3c2)[nH]1,"DNA topoisomerase 2-alpha (TOP2A, Homo sapiens, UniProt P11388)",DNA relaxation,,62.5 µM,,mean relaxed DNA,0%
C[S+](CC[C@H](N)C(=O)O)C[C@H]1O[C@@H](n2cnc3c(N)ncnc32)[C@H](O)[C@@H]1O (stereo partly shown),"T1, riboswitch RNA SAM-I metF-H2 (Thermoanaerobacter tengcongensis)",ITC,,apparent,,binding,binds
Cc1cc2nc3[nH]c(=O)[nH]c(=O)c3nc2cc1C,"T2, riboswitch RNA yjdF aptamer A11G/A50G (Bacillus subtilis)",fluorescence titration,,added: 380 nM lumichrome,,Kd,1400 nM
O=C(COc1ccc(C(F)(F)F)cc1C(F)(F)F)Nc1cc(C2CC2)nn1C1CCOCC1,Kir3.1/Kir3.4,"thallium flux, activator",HEK293,,relative to: standard compound,Emax,63%
Nc1ncnc2c1ncn2[C@@H]1O[C@H](COP(=O)(O)CP(=O)(O)OP(=O)(O)O)[C@@H](O)[C@H]1O,"P2X purinoceptor 1 (P2RX1, Homo sapiens, UniProt P51575, M214A)",calcium influx,,3.16 µM,relative to: ionomycin response,calcium influx,100% and 94.8% and 97.2% and 92.9%
Nc1nc2c(ncn2[C@H]2C[C@H](O)[C@@H](CO)O2)c(=O)[nH]1,"T3, riboswitch RNA C63G (Bacillus)",ITC,,KCl 50 mM,,binding,no binding

# Repeated from above:
SMILES,target,test,system,conditions,scale,endpoint,value
[H]/N=C(/N)NCC(=O)O,"Sodium- and chloride-dependent taurine transporter (SLC6A6, Homo sapiens, UniProt P31641, G62A)","binding, microscale thermophoresis",,"1.95 µM, room temperature, added: 50 nM labelled protein",higher = more binding,normalised MST signal,-0.0905
N#Cc1ccsc1NC(=O)COc1cc(Cl)ccc1Cl,Kir3.1/Kir3.4,"activator, thallium flux",HEK293,concentration not given,,activity,inactive
Cc1cc(Nc2ccc(C(F)(F)F)cc2)n2nc(C(C)(F)F)nc2n1,pyrD,"enzyme activity, inhibitor, colorimetric HTS, item: DCIP reduction",,3 µM,direction not given,robust Z-score,18.5
